Measurements gathered from unrelated publications.
Compare with care: the assays were run in different laboratories. “And” joins repeats or separate records; there may be more than shown. ± gives the spread as reported.
ESR1: Estrogen receptor (ESR1, Homo sapiens, UniProt P03372)
Genome polyprotein NS3 helicase domain: Genome polyprotein, NS3 helicase domain (Hepatitis C virus genotype 1b, UniProt Q9WMX2)
CALM1 Ca2+-bound C-lobe: Calmodulin-1, Ca2+-bound C-lobe (CALM1, Homo sapiens, UniProt P0DP23)
Glutamate receptor 2: Glutamate receptor 2 (Homo sapiens, UniProt P42262)
WD repeat-containing protein 91 WD40 domain, residues 392–747: WD repeat-containing protein 91, WD40 domain, residues 392–747 (Homo sapiens, UniProt A4D1P6)
Sequence of UniProt A4D1P6 (whole entry, looked up): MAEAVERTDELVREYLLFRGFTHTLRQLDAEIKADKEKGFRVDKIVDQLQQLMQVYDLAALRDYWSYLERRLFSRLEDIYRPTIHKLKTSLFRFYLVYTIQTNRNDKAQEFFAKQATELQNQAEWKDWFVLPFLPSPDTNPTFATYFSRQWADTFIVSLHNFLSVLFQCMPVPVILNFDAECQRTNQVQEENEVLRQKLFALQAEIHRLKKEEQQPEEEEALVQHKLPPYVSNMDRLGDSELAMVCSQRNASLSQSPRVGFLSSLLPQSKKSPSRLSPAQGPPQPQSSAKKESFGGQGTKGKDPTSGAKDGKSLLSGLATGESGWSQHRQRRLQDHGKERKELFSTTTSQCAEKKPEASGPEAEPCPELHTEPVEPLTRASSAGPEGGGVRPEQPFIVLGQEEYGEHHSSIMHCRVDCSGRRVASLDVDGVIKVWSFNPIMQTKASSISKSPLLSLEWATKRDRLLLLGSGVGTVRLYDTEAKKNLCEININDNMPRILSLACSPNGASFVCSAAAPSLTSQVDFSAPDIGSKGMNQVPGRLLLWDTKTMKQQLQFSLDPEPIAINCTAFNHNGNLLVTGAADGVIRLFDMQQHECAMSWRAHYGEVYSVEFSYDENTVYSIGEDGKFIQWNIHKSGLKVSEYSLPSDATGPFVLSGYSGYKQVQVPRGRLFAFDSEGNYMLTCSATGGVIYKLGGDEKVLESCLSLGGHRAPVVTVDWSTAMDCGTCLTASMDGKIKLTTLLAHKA
WD repeat-containing protein 91: WD repeat-containing protein 91 (Homo sapiens, UniProt A4D1P6)
Sequence of UniProt Q16774 (whole entry, unmodified, looked up): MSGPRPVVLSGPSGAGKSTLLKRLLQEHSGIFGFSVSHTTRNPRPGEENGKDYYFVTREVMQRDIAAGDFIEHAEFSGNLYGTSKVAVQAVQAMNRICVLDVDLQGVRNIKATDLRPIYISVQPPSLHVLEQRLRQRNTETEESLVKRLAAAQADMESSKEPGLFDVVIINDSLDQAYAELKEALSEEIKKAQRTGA
Sequence of UniProt Q64663 (whole entry, unmodified, looked up): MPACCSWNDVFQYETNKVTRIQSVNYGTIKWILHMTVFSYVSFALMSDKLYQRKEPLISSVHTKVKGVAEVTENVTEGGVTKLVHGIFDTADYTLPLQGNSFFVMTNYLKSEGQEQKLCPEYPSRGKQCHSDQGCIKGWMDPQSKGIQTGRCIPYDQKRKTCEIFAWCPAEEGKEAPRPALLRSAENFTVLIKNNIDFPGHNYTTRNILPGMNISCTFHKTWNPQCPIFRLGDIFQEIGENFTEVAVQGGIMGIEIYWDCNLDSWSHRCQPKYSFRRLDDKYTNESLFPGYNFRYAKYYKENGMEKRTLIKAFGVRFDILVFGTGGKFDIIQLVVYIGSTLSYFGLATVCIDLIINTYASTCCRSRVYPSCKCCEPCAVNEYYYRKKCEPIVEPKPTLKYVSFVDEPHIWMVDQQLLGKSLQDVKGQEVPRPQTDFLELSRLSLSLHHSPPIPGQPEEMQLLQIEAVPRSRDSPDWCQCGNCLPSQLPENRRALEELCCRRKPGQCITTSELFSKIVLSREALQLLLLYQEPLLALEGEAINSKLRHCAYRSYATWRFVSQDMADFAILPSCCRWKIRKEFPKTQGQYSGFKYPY
Sequence of UniProt P51575 (whole entry, unmodified, looked up): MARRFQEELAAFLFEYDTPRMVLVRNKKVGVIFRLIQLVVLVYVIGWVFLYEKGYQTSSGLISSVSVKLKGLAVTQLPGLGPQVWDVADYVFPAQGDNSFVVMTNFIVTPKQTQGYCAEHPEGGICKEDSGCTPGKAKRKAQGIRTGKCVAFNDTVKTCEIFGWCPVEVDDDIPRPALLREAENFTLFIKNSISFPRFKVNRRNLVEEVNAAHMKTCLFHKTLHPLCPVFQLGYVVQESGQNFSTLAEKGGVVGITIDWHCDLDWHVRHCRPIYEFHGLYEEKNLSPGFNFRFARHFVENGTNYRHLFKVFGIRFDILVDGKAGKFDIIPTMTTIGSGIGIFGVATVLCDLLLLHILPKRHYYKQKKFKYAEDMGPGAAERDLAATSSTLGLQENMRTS

SMILES	target	assay	test system	conditions	how to read	endpoint	result
COc1cc(O)c(CC=C(C)C)c2c1C(=O)CC(c1ccc(O)cc1)O2 (centres unmarked)	ESR1	array formation	PRL-HeLa	–	baseline: EC50 ERβ over EC50 ERα	selectivity ratio	0.932
Nc1ncnc2c1ncn2[C@@H]1O[C@H](COP(=O)(O)OP(=O)(O)OP(=O)(O)O)[C@@H](O)[C@H]1O	P2X purinoceptor 7 (P2rx7, Rattus norvegicus, UniProt Q64663, Q143A/R125A)	ion current, agonist, two-electrode voltage clamp	Xenopus laevis oocytes	1500 µM	baseline: highest concentration response	normalized current	1
CC[C@@H](C)[C@@H](NC(=O)[C@@H](Cc1ccc(O)cc1)NC(=O)[C@H]1CCCN1C(=O)[C@@H](CCCNC(=N)N)NC(=O)[C@H](N)Cc1c[nH]cn1)C(=O)N[C@H](C)C(=O)N[C@H](Cc1c[nH]cn1)C(=O)N[C@H](CCCNC(=N)N)C(=O)N[C@@H](C(=O)N[C@H](Cc1ccc(O)cc1)C(=O)N[C@H](CO)C(=O)N[C@H](Cc1ccccc1)C(N)=O)C(C)C	Transferrin receptor protein 1 (Tfrc, Mus musculus, UniProt Q62351)	flow cytometry	DC2.4	2 h, pH 6, replicate 3, unit not given	baseline: 0 h	surface TFRC expression	0.953
CSCC[C@@H]1NC(=O)[C@H](Cc2ccc(O)cc2)NC(=O)[C@H](Cc2ccc(O)cc2)NC(=O)[C@@H]2CCCN2C(=O)CNC(=O)[C@H](C(C)C)NC(=O)[C@H](Cc2c[nH]cn2)NC(=O)[C@@H](NC(=O)[C@H](C)N)CSSC[C@@H](C(=O)N[C@@H](CO)C(=O)NCC(N)=O)NC(=O)[C@H](C)NC(=O)[C@H](CC(C)C)NC1=O	CA2 (Bos taurus, UniProt P00921)	surface plasmon resonance	–	pH 7.4, 25 °C, 2% DMSO, 0.005% Tween-20, 1:1 model	–	dissociation rate constant	0.0003 s⁻¹
COc1cc(/C=C/C(=O)/C=C/c2ccc(O)c(OC)c2)ccc1O	haemin	binding, isothermal titration calorimetry	–	pH 7.4, 37 °C	–	ΔS	-202 ± 4.03 J/(mol·K)
NC1CCN(O)C1=O (racemic)	Genome polyprotein NS3 helicase domain	DNA binding, inhibitor	hepatitis C virus	100 µM, added: Cy5-dT15 DNA	–	inhibition	0%
COc1cccc2c(Nc3ccc4[nH]c(C(=O)N/N=C/c5ccc(SC)cc5)cc4c3)cc(C)nc12	Nuclear receptor subfamily 4 group A member 3, ligand-binding domain (Homo sapiens, UniProt Q92570)	reporter gene, Gal4 hybrid reporter	–	3 µM	baseline: vehicle	activation	0.71 fold
CC[C@H](C)[C@H](NC(=O)[C@H](CCCCN)NC(=O)CNC(=O)[C@@H](NC(=O)[C@@H](NC(=O)[C@H](CCSC)NC(=O)[C@H](Cc1c[nH]cn1)NC(=O)CN)[C@@H](C)O)C(C)C)C(=O)N[C@@H](Cc1ccc(O)cc1)C(=O)N[C@@H](C)C(=O)N[C@@H](C)C(=O)N[C@@H](CCSC)C(=O)N[C@@H](CCSC)C(=O)N[C@H](C(=O)N[C@@H](CCSC)C(=O)N[C@@H](CCC(=O)O)C(=O)N[C@@H](Cc1ccc(O)cc1)C(=O)N[C@@H](Cc1ccc(O)cc1)C(=O)N[C@@H](CCCNC(=N)N)C(=O)N[C@@H](CCC(N)=O)C(=O)N[C@@H](CO)C(=O)N[C@@H](CCCCN)C(=O)N[C@@H](C)C(=O)N[C@@H](CCCCN)C(=O)N[C@@H](CCCCN)C(=O)N[C@@H](CC(C)C)C(=O)N[C@@H](CCC(N)=O)C(=O)N[C@@H](C)C(=O)N[C@@H](CCSC)C(=O)N[C@@H](CCCNC(=N)N)C(=O)O)[C@@H](C)CC	CALM1 Ca2+-bound C-lobe	binding, competition ITC	–	concentration not given, 15 °C, endothermic, added: pre-formed Ca2+/N-lobe–CaV2.1 IQ complex	–	ΔH	6.98 ± 0.12 kcal/mol
CC(=O)N[C@H](C(=O)N[C@@H](CC(N)=O)C(=O)N[C@@H](CCCCN)C(=O)N1CCC[C@H]1C(=O)N[C@@H](CC(C)C)C(=O)N1CCC[C@H]1C(=O)N1CCC[C@H]1C(=O)N[C@@H](CC(C)C)C(=O)N1CCC[C@H]1C(=O)N[C@H](C(=O)N[C@@H](C)C(N)=O)C(C)C)C(C)C	Tyrosine-protein kinase Fyn, SH3 domain (FYN, Homo sapiens, UniProt P06241)	ligand binding, FTIR spectroscopy, measured: asymmetric stretch band C	–	pH 7.0, FYN complex, added: 4 mM peptide	–	wavenumber	2257.7 ± 0.4 cm⁻¹
O=c1c2ccccc2nc2n1CCc1c-2[nH]c2ccccc12	Genome polyprotein NS3 helicase domain	DNA binding, inhibitor	hepatitis C virus	100 µM, added: Cy5-dT15 DNA	–	inhibition	2%
O=C(COP(=O)(O)O)[C@@H](O)[C@H](O)[C@H](O)COP(=O)(O)O	Germinal-center associated nuclear protein, 80 kDa isoform (MCM3AP, Homo sapiens, UniProt O60318)	thermal proteome profiling, measured: MCM3AP	HepG2 cell lysate	concentration not given, 57 over 37 °C	baseline: compound over control	thermal stability ratio	0.4 and 10 and 0.971
NC(=O)C1=CN([C@@H]2O[C@H](COP(=O)(O)OP(=O)(O)OC[C@H]3O[C@@H](n4cnc5c(N)ncnc54)[C@H](OP(=O)(O)O)[C@@H]3O)[C@@H](O)[C@H]2O)C=CC1	ancestral FSP1	oxidoreductase activity, substrate	–	added: co-substrate 100 µM fixed	–	kcat	11.6 ± 0.88 s⁻¹
CC[C@H](C)[C@H](NC(=O)[C@H](CCCCN)NC(=O)CNC(=O)[C@@H](NC(=O)[C@@H](NC(=O)[C@H](CCSC)NC(=O)[C@H](Cc1c[nH]cn1)NC(=O)CN)[C@@H](C)O)C(C)C)C(=O)N[C@@H](Cc1ccc(O)cc1)C(=O)N[C@@H](C)C(=O)N[C@@H](C)C(=O)N[C@@H](CCSC)C(=O)N[C@@H](CCSC)C(=O)N[C@H](C(=O)N[C@@H](CCSC)C(=O)N[C@@H](CCC(=O)O)C(=O)N[C@@H](Cc1ccc(O)cc1)C(=O)N[C@@H](C)C(=O)N[C@@H](CCCNC(=N)N)C(=O)N[C@@H](CCC(N)=O)C(=O)N[C@@H](CO)C(=O)N[C@@H](CCCCN)C(=O)N[C@@H](C)C(=O)N[C@@H](CCCCN)C(=O)N[C@@H](CCCCN)C(=O)N[C@@H](CC(C)C)C(=O)N[C@@H](CCC(N)=O)C(=O)N[C@@H](C)C(=O)N[C@@H](CCSC)C(=O)N[C@@H](CCCNC(=N)N)C(=O)O)[C@@H](C)CC	CALM1 Ca2+-bound C-lobe	binding, isothermal titration calorimetry	–	pH 7.4, 15 °C, C-lobe, CaV2.1 IQ domain, added: Ca2+	–	ΔH	-2.48 ± 0.44 kcal/mol
Nc1ccc(C(=O)O)cc1	BEST1 (Homo sapiens, UniProt O76090)	whole-cell patch clamp	HEK293 transiently expressing channel	concentration not given, membrane potential 40 mV	–	current density	39.9 pA/pF and 25.2 pA/pF and 28.8 pA/pF and 49.6 pA/pF and 52 pA/pF and 23.5 pA/pF and 42.9 pA/pF
O=C1CCc2ccc(OCCCCN3CCN(c4cccc(Cl)c4Cl)CC3)cc2N1	PRDX3 (Homo sapiens, UniProt P30048)	binding	–	20 µM	–	SPR response	~20 RU
Cn1c(=O)c2[nH]cnc2n(C)c1=O	Glutamate receptor 2	ion current, positive allosteric modulator, SyncroPatch patch clamp	HEK293	30 µM	–	potentiation	100%
COc1cc(Nc2ncc3c(n2)-c2ccc(Cl)cc2C(c2c(F)cccc2OC)=NC3)ccc1C(=O)O	PAK3	kinase activity	–	1 µM	–	remaining activity	98%
Cc1nc(N=Nc2ccc(S(=O)(=O)O)cc2S(=O)(=O)O)c(COP(=O)(O)O)c(C=O)c1O	Genome polyprotein NS3 helicase domain	DNA binding, inhibitor	hepatitis C virus	100 µM, added: Cy5-dT15 DNA	–	inhibition	0%
Nc1ncnc2c1ncn2[C@@H]1O[C@H](C[C@@H](N)CC[C@H](N)C(=O)O)[C@@H](O)[C@H]1O	O-methyltransferase (Sorghum bicolor, UniProt A0A1B6PFV1)	ITC	–	concentration not given, added: RSV+	–	binding stoichiometry	1.12 ± 0.023
N#CC1CCN(C(=O)c2ccc(-c3cccc4cccnc34)cc2)CC1	WD repeat-containing protein 91 WD40 domain, residues 392–747	binding, SPR single-concentration screen	–	45 µM	–	SPR response	-12.6 RU and -13.5 RU
[H]/N=C(/N)NCC(=O)O	SLC6A6 (Homo sapiens, UniProt P31641, G62A)	binding, microscale thermophoresis	–	30.5 nM, room temperature, added: 50 nM labelled protein	higher = more binding	normalised MST signal	0.0617

SMILES	target	assay	test system	conditions	how to read	endpoint	result
CN1C(=O)C(c2c(-c3ccc(Cl)cc3)[nH]c3c2c(=O)[nH]c(=O)n3C)c2ccccc21 (centres unmarked)	WD repeat-containing protein 91	binding, SPR steady state	–	0.9375 µM	–	SPR response	9.99 RU
CC12CC3CC(C)(C1)CC(N)(C3)C2	Glutamate receptor 2	ion current, positive allosteric modulator, SyncroPatch patch clamp	HEK293	10 µM	–	potentiation	84%
C#C[C@]1(O)CC[C@H]2[C@@H]3CCC4=Cc5oncc5C[C@]4(C)[C@H]3CC[C@@]21C	Genome polyprotein NS3 helicase domain	DNA binding, inhibitor	hepatitis C virus	100 µM, added: Cy5-dT15 DNA	–	inhibition	0%
CC[C@@H]1[C@H](F)C(=O)N[C@@H]1COc1nccc2cc(C(N)=O)c(OC)cc12	EIF2AK4 (Homo sapiens, UniProt Q9P2K8)	ATP-site probe binding, ActivX profiling, measured: GCN2	THP-1 cell lysate	0.2 mM, Lys2 site	–	inhibition	1.7%
CC(N)=O	Genome polyprotein NS3 helicase domain	DNA binding, inhibitor	hepatitis C virus	100 µM, added: Cy5-dT15 DNA	–	inhibition	0%
CCN(CC)CCOc1ccc2c(c1)C(=O)c1cc(OCCN(CC)CC)ccc1-2	ACHE (Homo sapiens, UniProt P22303)	enzyme activity	–	–	–	curve top	99 % inhibition
Nc1ncnc2c1ncn2[C@@H]1O[C@H](COP(=O)(O)CP(=O)(O)OP(=O)(O)O)[C@@H](O)[C@H]1O	P2X purinoceptor 1 (P2RX1, Homo sapiens, UniProt P51575, F188L)	calcium influx	–	1 µM	baseline: ionomycin response	calcium influx	99.3% and 100% and 85.3%
CC1=C[C@H](O)CC(C)(C)[C@H]1/C=C/C(C)=C/C=C/C(C)=C/C=C/C=C(C)/C=C/C=C(C)/C=C/C1=C(C)C[C@@H](O)CC1(C)C	Beta-lactoglobulin (LGB, Bos taurus, UniProt P02754)	fluorescence quenching	–	concentration not given, 298 K	–	number of binding sites	2.22 and ~2
O=C(N[C@@H]1CCc2cc(Cl)ccc21)c1cccc(-c2cnco2)c1	WD repeat-containing protein 91 WD40 domain, residues 392–747	binding, SPR single-concentration screen	–	45 µM	–	SPR response	-8.8 RU and -0.8 RU
Cc1cc(NC(=O)c2cccc(NC(=O)/C=C/CN(C)C)c2)ccc1Nc1nccc(-c2cccnc2)n1	MAPK8 (Homo sapiens, UniProt P45983)	enzyme activity, inhibitor	–	0.1829 µM, 18 h, unit not given, added: GSH 10 mM pre-incubation	baseline: vehicle	remaining activity	0.965
NCCCC(=O)O	Genome polyprotein NS3 helicase domain	DNA binding, inhibitor	hepatitis C virus	100 µM, added: Cy5-dT15 DNA	–	inhibition	0%
CC(=O)c1cccc(OCc2cn(-c3ccc(C(=O)N4CCC(C#N)CC4)cc3)nn2)c1	WD repeat-containing protein 91 WD40 domain, residues 392–747	binding, SPR single-concentration screen	–	45 µM	–	SPR response	26.2 RU and 19.9 RU
N[C@@H](Cc1ccc(O)c(O)c1)C(=O)O	Genome polyprotein NS3 helicase domain	DNA binding, inhibitor	hepatitis C virus	100 µM, added: Cy5-dT15 DNA	–	inhibition	1%
Nc1nc2c(ncn2[C@@H]2O[C@H](COP(=O)(O)O)[C@@H](O)[C@H]2O)c(=O)[nH]1	GUK1 (Homo sapiens, UniProt Q16774, Y53A)	enzyme activity, NADH-coupled	–	250 µM	–	reaction rate	4.54 s⁻¹ and 2 s⁻¹ and 2.93 s⁻¹
O=C(c1cc2cccn2cn1)N1CCN(C(=O)c2ccoc2)C(c2ccc(F)cc2)C1 (centres unmarked)	WD repeat-containing protein 91 WD40 domain, residues 392–747	SPR	–	45 µM	–	binding	-19% and -2%
NC(=O)NC1NC(=O)NC1=O (centres unmarked)	N-alpha-acetyltransferase 80 (NAA80, Homo sapiens, UniProt Q93015)	substrate, DTNB	–	2 mM, 30 min, 37 °C, added: acetyl-CoA 500 µM	–	product formation	-0.22 µM
COc1ccc(CN(CCN(C)C)c2ccccn2)cc1	Genome polyprotein NS3 helicase domain	DNA binding, inhibitor	hepatitis C virus	100 µM, added: Cy5-dT15 DNA	–	inhibition	3%
O=C(/C=C/c1ccc(O)cc1)c1ccc(O)cc1O	ESR1	array formation	PRL-HeLa	–	baseline: EC50 ERβ over EC50 ERα	selectivity ratio	2.68
CC(Oc1ccccc1)C(=O)NCc1ccccn1 (centres unmarked)	WD repeat-containing protein 91	binding, affinity selection mass spectrometry	–	–	baseline: other proteins in batch	fold enrichment	0.955
O=c1nc(SCc2cc(F)cc(C(F)(F)F)c2)nc(SCc2ccc3sccc3c2)[nH]1	TOP2A (Homo sapiens, UniProt P11388)	ATPase activity	–	15.6 µM, added: ATP 2 mM	–	ATP hydrolysis rate	0.757 µM/min and 0.954 µM/min

Some of these lines once more:
SMILES	target	assay	test system	conditions	how to read	endpoint	result
CC(N)=O	Genome polyprotein NS3 helicase domain	DNA binding, inhibitor	hepatitis C virus	100 µM, added: Cy5-dT15 DNA	–	inhibition	0%
N#CC1CCN(C(=O)c2ccc(-c3cccc4cccnc34)cc2)CC1	WD repeat-containing protein 91 WD40 domain, residues 392–747	binding, SPR single-concentration screen	–	45 µM	–	SPR response	-12.6 RU and -13.5 RU
